{"data": "Published values pooled from the literature", "note": "Each line is one published result; not all experiments were run side by side. Several values in a cell are separate wells, animals, samples, runs or records."}
{"SMILES": "Nc1nc(-c2ccccc2)nc2[nH]nc(Nc3ccc(F)c(F)c3F)c12", "target or system": "HeLa Ohio", "setting": "72 h", "endpoint": "CC50", "value": "> 140 µM"}
{"SMILES": "CCN(CC)CC#CCNc1ccnc2cc(Cl)ccc12", "target or system": "Salmonella typhimurium", "assay": "mini-Ames test", "system": "TA1535", "setting": "62.5 µg/well, without S9", "endpoint": "revertants", "value": "4 revertants/well and 2 revertants/well"}
{"SMILES": "O=C([O-])CN1CCN(CC(=O)[O-])CCN(Cc2cccc(C(=O)[O-])n2)CC1.[18F-].[Sc+3]", "system": "mouse, liver", "setting": "intravenous, 1 h", "endpoint": "tracer uptake", "value": "0.48 %ID/g"}
{"SMILES": "CNC(=O)C1CCCN(C(=O)C2CC3CCC2N3C(=O)[C@@H]2C[C@@H](O)CN2C(=O)NCc2cccc(Cl)c2F)C1 (mixture of isomers)", "target or system": "CYP3A4 (human)", "assay": "inhibitor, time-dependent inhibition", "setting": "1.85 µM, preincubated with NADPH, with: testosterone substrate", "how to read": "reference: negative control", "endpoint": "remaining activity", "value": "97.7%"}
{"SMILES": "C=C(NC(=O)c1csc(-c2nc3c(cc2O)-c2nc(cs2)C(=O)NC(C(C)O)C(=O)NC(=C(C)OC)c2nc(cs2)C(=O)NC2c4nc(cs4)C(=O)NC(COC(=O)c4c5c6c(cccc6n4O)COC(=O)C(OC4CC(C)(O)C(N(C)C)C(C)O4)C2OC5)c2nc-3cs2)n1)C(N)=O (stereo not drawn)", "system": "Sprague-Dawley rat, male, plasma", "setting": "intravenous infusion, 6 mg/kg single dose", "endpoint": "MRT(0-last)", "value": "1.48 h"}
{"SMILES": "CN(Cc1ccccc1)C(=O)CN1CCN(CC(=O)[O-])CCN(Cc2cccc(C(=O)[O-])n2)CC1.[18F-].[Sc+3]", "system": "mouse, blood", "setting": "intravenous, 1 h", "endpoint": "tracer uptake", "value": "0.35 %ID/g"}
{"SMILES": "Nc1nc(-c2ccc(F)cc2F)nc2[nH]nc(Nc3ccc(F)cc3)c12", "target or system": "HeLa Ohio", "setting": "72 h", "endpoint": "CC50", "value": "> 140 µM"}
{"SMILES": "CC(C)Cc1ccc(C(C)C(=O)N[C@@H](CCCCNC(=O)CCOCCOCCOCCOCCOCCOCCNC(=O)CN2CCN(CC(=O)[O-])CCN(CC(=O)[O-])CCN(CC(=O)[O-])CC2)C(=O)Nc2cccc3c(C(=O)NCC(=O)N4CC(F)(F)C[C@H]4C#N)ccnc23)cc1.[177Lu+3] (stereo partly drawn)", "target or system": "U-87 MG tumour model", "system": "host not given, liver", "setting": "4 h, tumour-bearing", "endpoint": "tracer uptake", "value": "4.85 %ID/g"}
{"SMILES": "OC(Cc1cc(-c2ccc(C(O)C(F)(F)F)s2)sc1-c1ccc(-c2sc(-c3ccc(C(O)C(F)(F)F)s3)cc2CC(O)C(F)(F)F)s1)C(F)(F)F (stereo not drawn)", "target or system": "primary human fetal neurons", "assay": "LC-MS/MS", "setting": "4 µM, 15 min, replicate 2", "endpoint": "amount in cell extract", "value": "0.06 nmol and 0.04 nmol and 0.03 nmol"}
{"SMILES": "Nc1nc(-c2ccccn2)nc2[nH]nc(Nc3ccc(F)cc3)c12", "target or system": "HeLa Ohio", "setting": "72 h", "endpoint": "CC50", "value": "> 156 µM"}
{"SMILES": "CC(C)OCCOCc1ccc(OCC(O)CN(N=O)C(C)C)cc1 (stereo not drawn)", "target or system": "Escherichia coli", "assay": "Ames test", "system": "WP2 uvrA", "setting": "1580 µg/plate, without metabolic activation", "how to read": "reference: solvent control", "endpoint": "revertant fold increase", "value": "0.8 fold"}
{"SMILES": "Cn1nc(Nc2ccc(F)cc2)c2c(N)nc(-c3ccccc3)nc21", "target or system": "HeLa Ohio", "setting": "72 h", "endpoint": "CC50", "value": "> 150 µM"}
{"SMILES": "N#C[C@@H]1CC(F)(F)CN1C(=O)CNC(=O)c1ccnc2c(NC(=O)[C@@H](N)CCCCNC(=O)CCOCCOCCOCCOCCOCCOCCNC(=O)CN3CCN(CC(=O)[O-])CCN(CC(=O)[O-])CCN(CC(=O)[O-])CC3)cccc12.[177Lu+3]", "target or system": "U-87 MG tumour model", "system": "host not given, stomach", "setting": "48 h, tumour-bearing", "endpoint": "tracer uptake", "value": "0.04 %ID/g"}
{"SMILES": "Nc1nc(-c2ccccc2)nc2[nH]nc(Nc3ccc(F)c(Cl)c3)c12", "target or system": "HeLa Ohio", "setting": "72 h", "endpoint": "CC50", "value": "> 141 µM"}
{"SMILES": "O=C1C2CC3CC1CC(C(=O)N1CCN(c4ccc([N+](=O)[O-])c5ncccc45)CC1)(C3)C2", "target or system": "Escherichia coli", "assay": "Ames test", "system": "WP2 uvrA pKM101", "setting": "0.13 µg/well, with S9", "how to read": "reference: vehicle", "endpoint": "revertant fold increase", "value": 1}
{"note": "Some of these lines once more:"}
{"SMILES": "OC(Cc1cc(-c2ccc(C(O)C(F)(F)F)s2)sc1-c1ccc(-c2sc(-c3ccc(C(O)C(F)(F)F)s3)cc2CC(O)C(F)(F)F)s1)C(F)(F)F (stereo not drawn)", "target or system": "primary human fetal neurons", "assay": "LC-MS/MS", "setting": "4 µM, 15 min, replicate 2", "endpoint": "amount in cell extract", "value": "0.06 nmol and 0.04 nmol and 0.03 nmol"}
{"SMILES": "Nc1nc(-c2ccccn2)nc2[nH]nc(Nc3ccc(F)cc3)c12", "target or system": "HeLa Ohio", "setting": "72 h", "endpoint": "CC50", "value": "> 156 µM"}
